Assay results pooled from the literature.
Lines come from different studies, so protocols differ.
Cell line: HUVEC

SMILES | assay | conditions | how to read | quantity | result
CC(C)(C)c1cc2c(O)c(c1)Cc1cc(C(C)(C)C)cc(c1OCC(=O)Nc1cncc3ccccc13)Cc1cc(C(C)(C)C)cc(c1O)Cc1cc(C(C)(C)C)cc(c1OCC(=O)Nc1cncc3ccccc13)COC2 | cell growth or viability, MTT | 15 µM, 72 h | – | inhibition | 27%
COc1ccc2cc3[n+](cc2c1OCc1cn(Cc2ccc(F)cc2Br)nn1)CCc1cc2c(cc1-3)OCO2 | cell growth or viability, MTT | – | – | IC50 | 18.8 µM
CC[C@H](NC(=O)[C@H](Cc1ccccc1)NC(=O)[C@H](CCSC)NC(=O)[C@H](Cc1ccccc1)NC(=O)[C@@H]1CCCN1C(=O)[C@H](CCSC)NC(=O)[C@@H](NC(=O)[C@H](CO)NC(=O)[C@H](Cc1ccccc1)NC(=O)[C@H](CCCNC(=N)N)NC(=O)[C@H](CCCNC(=N)N)NC(=O)[C@@H](N)CC(C)C)[C@@H](C)O)C(=O)N[C@@H](CC(N)=O)C(=O)N[C@H](C(=O)N[C@@H](CC(N)=O)C(=O)N[C@@H](CC(N)=O)C(=O)N[C@H](C(=O)N[C@@H](CC)C(=O)N[C@@H](CC(N)=O)C(=O)N[C@@H](Cc1ccccc1)C(N)=O)C(C)C)[C@@H](C)CC | cell migration, inhibitor | 50 µM | – | inhibition | 60%
CC(C)(C)c1cc2c(O)c(c1)Cc1cc(C(C)(C)C)cc(c1OCC(=O)Nc1cccc3ncccc13)Cc1cc(C(C)(C)C)cc(c1O)Cc1cc(C(C)(C)C)cc(c1OCC(=O)Nc1cccc3ncccc13)COC2 | cell growth or viability, MTT | 15 µM, 72 h | – | inhibition | < 0%
CNC(=O)c1c(C)oc2cc(Oc3ncnc4cc(OC)c(OCCCCCCC(=O)NO)cc34)ccc12 | tube formation | 10 µM, 72 h | baseline: control | tubule length | 53%
COc1ccc2cc3[n+](cc2c1OCc1cn(Cc2ccc(OC(F)(F)F)cc2)nn1)CCc1cc2c(cc1-3)OCO2 | cell growth or viability, MTT | – | – | IC50 | 10.7 µM
CC[C@H](C)[C@H](NC(=O)CNC(=O)[C@H](CCCCNC(C)=O)NC(=O)[C@H](Cc1ccc(O)cc1)NC(=O)[C@H](C)NC(=O)[C@H](CC(C)C)NC(=O)[C@H](CCC(N)=O)NC(=O)[C@H](Cc1ccc(O)cc1)NC(=O)[C@H](CC(C)C)NC(=O)[C@H](CCC(=O)O)NC(=O)[C@H](CCSC)NC(=O)[C@H](Cc1c[nH]c2ccccc12)NC(=O)[C@@H](NC(=O)[C@H](CC(C)C)NC(=O)[C@H](CCCCNC(=O)CCc1cn(CCOCCOCCOCCOCCOCCOCCOCCOCCNC(=O)CCC(=O)NCc2ccc(CN3C(=O)[C@H]4CC(=O)N[C@@H](CCCNC(=N)N)C(=O)NCC(=O)N[C@@H](CC(=O)O)C(=O)NC[C@H]3C(=O)N4)cc2)nn1)NC(C)=O)[C@@H](C)O)C(N)=O | Matrigel tube formation | concentration not given, 5 h, added: VEGF165 10 ng/mL | – | capillary network formation | decreased
CC(C)(C)c1cc2c(O)c(c1)Cc1cc(C(C)(C)C)cc(c1OCC(=O)NCc1cccnc1)Cc1cc(C(C)(C)C)cc(c1O)Cc1cc(C(C)(C)C)cc(c1OCC(=O)NCc1cccnc1)COC2 | cell growth or viability, MTT | 15 µM, 72 h | – | inhibition | 33%
COc1ccc2cc3[n+](cc2c1OCc1cn(Cc2ccc(Cl)cc2Cl)nn1)CCc1cc2c(cc1-3)OCO2 | cell growth or viability, MTT | – | – | IC50 | 66 µM
O=Cc1c(O)ccc2ccccc12 | RNA sequencing, item: TFPI2 | 75 µM, 24 h | baseline: DMSO | log2 fold change | -3.24
CC(=O)N[C@@H](CCCCN)C(=O)N[C@@H](Cc1c[nH]c2ccccc12)C(=O)N[C@@H](Cc1ccccc1)C(=O)N[C@@H](CCC(=O)O)C(=O)N[C@H](C(=O)N[C@@H](Cc1c[nH]c2ccccc12)C(=O)N[C@@H](Cc1ccccc1)C(=O)N[C@H](C(=O)N[C@@H](CCC(=O)O)C(=O)N[C@@H](Cc1c[nH]c2ccccc12)C(=O)N1CCC[C@H]1C(=O)N[C@@H](CCCCN)C(=O)N[C@@H](CCCCN)C(=O)N[C@@H](CCCNC(=N)N)C(=O)N[C@@H](CCCCN)C(=O)NCCS)[C@@H](C)O)[C@@H](C)O | cyclin B1 protein, western blot | antisense delivery | baseline: MPG over compound | IC50 ratio | 70 fold
CC(C)(C)c1cc2c(O)c(c1)Cc1cc(C(C)(C)C)cc(c1OCC(=O)NCc1ccccn1)Cc1cc(C(C)(C)C)cc(c1O)Cc1cc(C(C)(C)C)cc(c1OCC(=O)NCc1ccccn1)COC2 | cell growth or viability, MTT | 15 µM, 72 h | – | inhibition | 16%
COc1ccc2cc3[n+](cc2c1OCc1cn(Cc2ccccc2C#N)nn1)CCc1cc2c(cc1-3)OCO2 | cell growth or viability, MTT | – | – | IC50 | 14.8 µM
CC[C@@H](C)[C@H]1NC(=O)[C@@H]([C@H](C)O)NC(=O)[C@@H](Cc2c[nH]cn2)NC(=O)CNC(=O)[C@@H](CCCNC(=N)N)NC(=O)CNC(=O)[C@@H](Cc2ccccc2)NC1=O | – | 100 nM, without VEGF | – | transendothelial electrical resistance | no effect
CC(C)(C)c1cc2c(O)c(c1)Cc1cc(C(C)(C)C)cc(c1OCC(=O)Nc1ccccn1)Cc1cc(C(C)(C)C)cc(c1O)Cc1cc(C(C)(C)C)cc(c1OCC(=O)Nc1ccccn1)COC2 | cell growth or viability, MTT | 15 µM, 72 h | – | inhibition | 31%
COc1ccc2cc3[n+](cc2c1OCc1cn(Cc2ccc(Cl)cc2F)nn1)CCc1cc2c(cc1-3)OCO2 | cell growth or viability, MTT | – | – | IC50 | 54.4 µM

For quick reference, copied from above:
SMILES | assay | conditions | how to read | quantity | result
COc1ccc2cc3[n+](cc2c1OCc1cn(Cc2ccc(Cl)cc2Cl)nn1)CCc1cc2c(cc1-3)OCO2 | cell growth or viability, MTT | – | – | IC50 | 66 µM
O=Cc1c(O)ccc2ccccc12 | RNA sequencing, item: TFPI2 | 75 µM, 24 h | baseline: DMSO | log2 fold change | -3.24
CC(=O)N[C@@H](CCCCN)C(=O)N[C@@H](Cc1c[nH]c2ccccc12)C(=O)N[C@@H](Cc1ccccc1)C(=O)N[C@@H](CCC(=O)O)C(=O)N[C@H](C(=O)N[C@@H](Cc1c[nH]c2ccccc12)C(=O)N[C@@H](Cc1ccccc1)C(=O)N[C@H](C(=O)N[C@@H](CCC(=O)O)C(=O)N[C@@H](Cc1c[nH]c2ccccc12)C(=O)N1CCC[C@H]1C(=O)N[C@@H](CCCCN)C(=O)N[C@@H](CCCCN)C(=O)N[C@@H](CCCNC(=N)N)C(=O)N[C@@H](CCCCN)C(=O)NCCS)[C@@H](C)O)[C@@H](C)O | cyclin B1 protein, western blot | antisense delivery | baseline: MPG over compound | IC50 ratio | 70 fold
